Measured values from different studies.
Parts stem from different laboratories: compare values within a part only. Positions count from the first letter of the parent shown.

Set 1
Target: CCNB2, cyclin fold, Cln2 fusion (human)
Technique: yeast growth competition, sequencing
Matrix: yeast
Notes: strong parent motif
Relative to: not given
Reading: higher = stronger binding
Endpoint: normalised enrichment score
Starting sequence: PKMYT1 docking peptide (human); SFEPRNLLSLFED; partner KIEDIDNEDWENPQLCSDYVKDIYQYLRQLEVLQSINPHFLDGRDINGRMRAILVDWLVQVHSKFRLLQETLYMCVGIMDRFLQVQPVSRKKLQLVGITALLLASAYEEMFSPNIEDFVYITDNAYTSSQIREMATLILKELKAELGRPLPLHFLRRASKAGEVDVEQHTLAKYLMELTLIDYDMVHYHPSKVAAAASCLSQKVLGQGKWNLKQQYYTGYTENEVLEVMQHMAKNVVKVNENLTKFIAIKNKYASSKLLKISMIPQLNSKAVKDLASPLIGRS
SFEPRNILSLFED [L7I]: -0.395
SFEPRNLLSLAED [F11A]: -0.32
SIEPRNLLSLFED [F2I]: 1.54
SKEPRNLLSLFED [F2K]: -0.355
SFEPRNLGSLFED [L8G]: -0.41
SREPRNLLSLFED [F2R]: 0.233
SFEPRNLLGLFED [S9G]: 0.825
SFEPRNLLSLEED [F11E]: -0.203

Set 2
Target: RING finger protein unkempt homolog, zinc fingers 1-6, GST-SBP tag (UNK, Homo sapiens, UniProt Q9C0B0, residues 30-357)
Chain of UniProt Q9C0B0 (30-357, looked up): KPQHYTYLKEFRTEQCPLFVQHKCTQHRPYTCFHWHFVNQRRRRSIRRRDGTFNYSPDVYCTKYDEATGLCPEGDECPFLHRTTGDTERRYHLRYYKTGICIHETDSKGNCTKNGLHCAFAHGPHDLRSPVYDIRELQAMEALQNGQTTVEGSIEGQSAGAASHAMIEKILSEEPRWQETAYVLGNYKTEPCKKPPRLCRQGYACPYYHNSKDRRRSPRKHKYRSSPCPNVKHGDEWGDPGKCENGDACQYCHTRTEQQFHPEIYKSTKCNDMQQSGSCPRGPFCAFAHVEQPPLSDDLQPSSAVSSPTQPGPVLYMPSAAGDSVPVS
Technique: RNA Bind-n-Seq
Form: RNA
Matrix: in vitro
Tested at: not given
Notes: RNA with constant flanks, ends assumed
Relative to: input RNA pool
Reading: higher = stronger binding
Endpoint: bound/input enrichment
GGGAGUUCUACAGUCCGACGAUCCUAGAAUGUGAAUUUUACCUCUUAGAAUUAAUGGACUGUUGCUUGAUAGUGUAUCAUCCUUACCGACCUUUGCUCCAGUAUGUGCAGGACAUGGGCCAGGAAGACGUGCUGCUUCCCCUUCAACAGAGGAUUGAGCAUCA: 1.67 ratio
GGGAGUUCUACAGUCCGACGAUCUGUGGCGAUUCAGAUAAAGGAUUUGUUGUUAUUAAUCAAAAGGGAAUUGACCCCUUUUCCUCCGAUGCUCUUUCAAAAGAAGGCAUAGUUGCUCUGCGCAGAGCUAAAAGGAGAAAUAUGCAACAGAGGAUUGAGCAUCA: 0.257 ratio
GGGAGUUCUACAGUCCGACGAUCCUUCUGCAGCUCAUCUCAUGCCUGCAGUGCCGGCGGUGUCCCCAUUACUUCUUACCGAACUCCGAUCUGUUUCAAGGCAAACCCCACUCGGCCUUGGAAAACGCUGCUAAACAAACGUGGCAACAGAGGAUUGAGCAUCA: 0.182 ratio
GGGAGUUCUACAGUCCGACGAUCUCUGCUCCUGGAAAAGAGAAAAGUGAAACUGAUAAGGAAACUUCUUUGGUAAAGCAAACAUCCGCAAAACUUCAACAACAAGAACAAAGGGAGGAGGCUCAGUGGACACCUACUAAAUUGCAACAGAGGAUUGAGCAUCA: 0.268 ratio
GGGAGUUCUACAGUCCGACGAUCCGAGCAGUGGAGUGUUGUGUGAGGUUGCUUCAUGUGCGAAAUGGAAAUUGUAAAUAUCAUCCCGGUGAAGAAACAUUUAAAUUAGCUCAGACAUACAUGGAUAAGCUGUCUAAACAUGGCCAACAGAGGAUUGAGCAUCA: 0.371 ratio
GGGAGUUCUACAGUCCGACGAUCGUGACAUCUAAUGAGGUGUGAGCACGGAAGGUUCUUUUUUUCAGUGGCUCUUUUGUCAGAACCCGAGUCAGCCAUCACCCUCGCAGCAACCACCUGACUGCAGGUCAGAUCUCCCCCAGGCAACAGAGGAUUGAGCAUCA: 0.2 ratio
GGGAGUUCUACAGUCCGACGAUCGACCCUUACUUCCACGAUCGUGUUGCUUCCUUCUAUGAAGGUCAGGUUGCAAUAUGGGAUCUCCGAAAAUUUGAGAAGCCAGUUUUGACUUUGACUGAACAACCAAAGCCCUUGACAAAGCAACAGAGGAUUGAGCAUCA: 0.198 ratio
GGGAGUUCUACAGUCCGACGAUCCUUCCCCUUAAAUAAUUGUGUUCAUUUUUGUUUUGUUUCCUUGUGUACUCCAGCAUUGGUUACCGUCAUGGGAAAGGAAGGUGUCCACGCAGGCACAAUUAACAAGAAAACAUAUGAACUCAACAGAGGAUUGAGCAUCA: 0.33 ratio
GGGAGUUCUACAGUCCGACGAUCGCCCGCCUUUUUCUCUCACACUUUGGAUUUUUGUCCUUAGAAGCACUGAAGGAACCUGCAAACCGUCGUCUACCUCCUCACCUUAUUGCACUUGAUUCCACGAUACCUGGAUUUUUUGAUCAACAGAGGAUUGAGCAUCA: 0.389 ratio
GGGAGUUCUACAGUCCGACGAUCCUAAACUGUCAUUCACAACUUGGCUACACAUAGACUCUAGUCAGUUUUGUCUCCAGAACCUCCGGCUUUUGUAUUUUUUAAUUUUAAUUUCACUGUUAAUCCUUAUUGUCUUUUUUAUUACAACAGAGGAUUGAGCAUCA: 19 ratio
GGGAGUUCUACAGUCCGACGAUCUAAAGAACUCUUCAGAAUUCCUGGUGUUUCAUCAUAUAUACGACUAAGAUAUCAACUCUUCCCGCUUGCUGUUUCUGGACCAAAAAAAAUGACGUCUAUUAUCAAAUUAACUACCCUUUCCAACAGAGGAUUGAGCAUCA: 0.787 ratio

Set 3
Target: Interferon regulatory factor 7, full length, phosphomimetic (IRF7, Homo sapiens, UniProt Q92985, residues 1-503, S471D/S472D/S475D/S476D/S477D/S483D/S484D/S487D)
Technique: protein-binding microarray
Form: double-stranded DNA, one strand shown
Matrix: in vitro
Tested at: 2200 nM top
Notes: 60-bp whole probe
Together with: salmon DNA 0.4 mg/ml
Relative to: random background probes
Reading: higher = stronger binding
Endpoint: fitted relative affinity
All sequences stand within: GCCTAGCAC … GTCTTGATTCGCTTGACGCTGCTG
Construct (chain): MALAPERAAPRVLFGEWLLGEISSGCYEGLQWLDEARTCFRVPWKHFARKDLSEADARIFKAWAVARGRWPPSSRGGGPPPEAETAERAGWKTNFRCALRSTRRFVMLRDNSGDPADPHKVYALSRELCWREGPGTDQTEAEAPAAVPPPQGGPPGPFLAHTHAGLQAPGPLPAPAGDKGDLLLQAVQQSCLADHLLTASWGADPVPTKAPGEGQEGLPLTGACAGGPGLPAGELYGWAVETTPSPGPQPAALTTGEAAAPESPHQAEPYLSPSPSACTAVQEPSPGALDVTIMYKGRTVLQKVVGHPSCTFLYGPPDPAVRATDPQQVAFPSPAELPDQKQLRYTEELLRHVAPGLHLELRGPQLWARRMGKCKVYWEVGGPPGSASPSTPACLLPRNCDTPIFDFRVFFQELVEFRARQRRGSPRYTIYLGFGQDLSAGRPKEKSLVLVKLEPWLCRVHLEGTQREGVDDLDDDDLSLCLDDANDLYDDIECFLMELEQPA
GACGTTATCGGTATCGGGACGTGCTAG: 0.753 z-score
TTAGGACTGCTTTTCCTTCAGTGCTAG: 1.22 z-score
TTAGGACTGGACAATCGGTTAGTGCTA: -0.201 z-score
TTAGGTCTCCTTAGCCTTTAGTGCTAG: 0.0083 z-score
GAGGGTATCGGTATCGGGACGTGCTAG: 0.167 z-score
GACGATATCGGGTTACGAGACGTGCTA: 0.333 z-score
GCCCCACCCACTCTGGCCCCGTGCTAG: -0.0145 z-score
TAGCGTATATTCCCTAGAATAGTGCTA: 0.04 z-score
AACGGTATCGACTTTCGGGACGTGCTA: 3.22 z-score
AAGTGTGCCCATCTCTGCTCGTGCTAG: 0.574 z-score
CACGGACTGCTTATCCTGACGTGCTAG: 0.246 z-score
TTAGATATCGGTTTTCGATTAGTGCTA: 3.85 z-score
GACGGTCTCCTGATCCTGACGTGCTAG: 0.307 z-score
AATGTTTTGTTTTTCATTATGTGCTAG: 3.01 z-score
TCAGTTTCGTATCTTCATACTGTGCTA: 8.32 z-score
TTAGATCTCTGACTGGATTAGTGCTAG: -0.094 z-score
TTAGGTATGGACACTGGGTTAGTGCTA: -0.286 z-score

Set 4
Substance: PhoQ, residues 284 288 289 292 302 303 TLMATV
Technique: Sort-seq
Item: YFP reporter
Matrix: E. coli
Notes: PhoQ-PhoP variant library
Together with: 10 µM Mg2+
Relative to: high Mg2+ state
Reading: higher = stronger signaling
Endpoint: fold induction
PhoP, residues 12 14 15 18 19 TQALL (Escherichia coli, UniProt P23836): 3.05
PhoP, residues 12 14 15 18 19 QYFSL (Escherichia coli, UniProt P23836): 2.16
PhoP, residues 12 14 15 18 19 NYFRM (Escherichia coli, UniProt P23836): 10

Repeated from above (set 2):
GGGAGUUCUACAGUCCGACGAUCGCCCGCCUUUUUCUCUCACACUUUGGAUUUUUGUCCUUAGAAGCACUGAAGGAACCUGCAAACCGUCGUCUACCUCCUCACCUUAUUGCACUUGAUUCCACGAUACCUGGAUUUUUUGAUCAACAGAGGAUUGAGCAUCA: 0.389 ratio
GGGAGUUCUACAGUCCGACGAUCCUAAACUGUCAUUCACAACUUGGCUACACAUAGACUCUAGUCAGUUUUGUCUCCAGAACCUCCGGCUUUUGUAUUUUUUAAUUUUAAUUUCACUGUUAAUCCUUAUUGUCUUUUUUAUUACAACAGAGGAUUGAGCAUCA: 19 ratio
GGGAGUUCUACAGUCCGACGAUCUAAAGAACUCUUCAGAAUUCCUGGUGUUUCAUCAUAUAUACGACUAAGAUAUCAACUCUUCCCGCUUGCUGUUUCUGGACCAAAAAAAAUGACGUCUAUUAUCAAAUUAACUACCCUUUCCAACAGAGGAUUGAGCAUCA: 0.787 ratio
